Experimental data from different studies.
Each numbered part is a random draw from the data of one study; scales do not carry over between parts.

Set 1 — technique: universal PBM; form: double-stranded DNA, one strand shown; medium: in vitro; concentration: not given; reading: higher = stronger binding; quantity: E-score
Target: Sal-like protein 4, full length isoform B (SALL4, Homo sapiens, UniProt Q9UJQ4-2, residues 1-616)
Notes: 8-mer, flanks averaged, mean of replicates
Construct (chain): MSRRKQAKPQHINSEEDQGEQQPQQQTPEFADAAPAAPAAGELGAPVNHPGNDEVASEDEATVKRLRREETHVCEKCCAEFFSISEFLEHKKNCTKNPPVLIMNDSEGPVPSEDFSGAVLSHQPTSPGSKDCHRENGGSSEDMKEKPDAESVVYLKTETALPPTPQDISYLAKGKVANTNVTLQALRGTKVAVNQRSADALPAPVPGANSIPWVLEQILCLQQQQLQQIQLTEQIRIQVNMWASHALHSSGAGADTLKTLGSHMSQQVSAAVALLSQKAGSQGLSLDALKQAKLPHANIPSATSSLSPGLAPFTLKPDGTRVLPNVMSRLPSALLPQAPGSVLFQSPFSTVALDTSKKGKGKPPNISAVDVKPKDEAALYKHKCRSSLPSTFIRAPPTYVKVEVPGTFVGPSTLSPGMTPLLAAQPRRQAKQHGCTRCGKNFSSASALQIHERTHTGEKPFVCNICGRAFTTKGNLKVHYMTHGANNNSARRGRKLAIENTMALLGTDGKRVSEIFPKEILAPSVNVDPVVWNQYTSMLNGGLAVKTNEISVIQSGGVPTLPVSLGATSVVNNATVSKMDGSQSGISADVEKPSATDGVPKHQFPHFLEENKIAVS
Strand = AAGTGAGT; value = -0.0445
Strand = ACTACGCC; value = -0.172
Strand = CTAGAGAG; value = -0.129
Strand = GATACCCA; value = -0.00746
Strand = AAATGTGC; value = 0.145

Set 2 — technique: protein-binding microarray; form: double-stranded DNA, one strand shown; medium: in vitro; concentration: 2200 nM top; notes: 60-bp whole probe; together with: salmon DNA 0.4 mg/ml; relative to: random background probes; reading: higher = stronger binding; quantity: fitted relative affinity; all sequences stand within: GCCTAGCAC … GTCTTGATTCGCTTGACGCTGCTG
Target: Interferon regulatory factor 7, full length, phosphomimetic (IRF7, Homo sapiens, UniProt Q92985, residues 1-503, S471D/S472D/S475D/S476D/S477D/S483D/S484D/S487D)
Target sequence (chain): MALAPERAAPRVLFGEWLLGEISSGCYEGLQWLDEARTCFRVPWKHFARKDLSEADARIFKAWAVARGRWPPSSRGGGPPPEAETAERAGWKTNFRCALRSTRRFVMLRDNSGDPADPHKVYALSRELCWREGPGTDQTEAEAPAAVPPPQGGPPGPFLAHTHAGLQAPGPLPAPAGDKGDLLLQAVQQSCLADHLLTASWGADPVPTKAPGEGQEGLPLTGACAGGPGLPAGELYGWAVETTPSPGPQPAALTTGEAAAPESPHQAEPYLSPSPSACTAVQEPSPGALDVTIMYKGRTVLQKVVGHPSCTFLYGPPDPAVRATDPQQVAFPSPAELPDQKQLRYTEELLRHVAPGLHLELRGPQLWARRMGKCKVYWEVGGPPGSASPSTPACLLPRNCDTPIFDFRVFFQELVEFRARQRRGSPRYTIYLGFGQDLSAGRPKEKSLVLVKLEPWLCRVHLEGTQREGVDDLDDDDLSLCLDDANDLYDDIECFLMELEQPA
Strand = TCACCTTTCTCTCTGTGACTGTGCTAG; value = 3.01 z-score
Strand = TTCTTTATGCACTCTCTACATGTGCTA; value = 1.24 z-score
Strand = GACGGACTGCTTCGCCTGACGTGCTAG; value = 0.00204 z-score
Strand = GACGACCTCAGTATCGAGACGTGCTAG; value = -0.112 z-score
Strand = GACGAACTGGGGCCTGGAGACGTGCTA; value = -0.494 z-score
Strand = TCATGTTCCCTCATCAGACTGTGCTAG; value = 2.29 z-score
Strand = GGTCTTCTGGGCTGTTTGGTTGTGCTA; value = -0.188 z-score

Set 3 — technique: RNA Bind-n-Seq; form: RNA; medium: in vitro; concentration: 365 nM; relative to: no-protein control; reading: higher = stronger binding; quantity: RBNS enrichment (R)
Target: RNA binding protein fox-1 homolog 2, RRM domain, GST-SBP tag (RBFOX2, Homo sapiens, UniProt O43251-10, residues 100-194)
Notes: natural RNA segment, single round, ends assumed
Target sequence (chain): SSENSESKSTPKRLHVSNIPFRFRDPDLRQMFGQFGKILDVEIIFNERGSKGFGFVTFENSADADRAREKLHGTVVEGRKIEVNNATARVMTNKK
Strand = GGGAGUUCUACAGUCCGACGAUCCAUGAGUACAUUAAAAAUAAUUUAAUAGCCACAAUAUGAUGUUCUUUAAGCUGCAAAUUGAGUACACUGGGAAUCAACAAAUUUGAUGAAGCCUGUCUGUCUCUUCACCAUGGAAUUCUCGGGUGCCAA; value = 0.499
Strand = GGGAGUUCUACAGUCCGACGAUCAAUAGCAUUUUGUAUGUUAGAGACCAUUCUUUUCUAGUCCUUCCAAACAUUCCUGUGUCACUUAAGAAUGUUAGUAGAGGUCGCUUCUUUGGAAAUUGAGGACUUUUUUUUGGAAUUCUCGGGUGCCAA; value = 0.274
Strand = GGGAGUUCUACAGUCCGACGAUCGUUUCCUAAUAUUUCAAAGGUUCCAAAGGAUCUAGAGCUCUCUAGUUACAUAGCAUUCAUAUAGGAAUGAGCAGAGACAUCUGAGAAGAGUGGGAGCUCAUGGGUGACAGUGGAAUUCUCGGGUGCCAA; value = 0.61
Strand = GGGAGUUCUACAGUCCGACGAUCUCAAAAGAAUACAUAGACUGGACACGAAGCUCAAAGGUAGAGUUCGCCUAGCAUGCAUACGAAGCCUGGAUCCCAUAUCCCAGCAGGGCAAACCAAUUGCCUCAGGCUAUUGGAAUUCUCGGGUGCCAA; value = 5.88

Single results of other studies
Substance = PhoQ, residues 284 288 289 292 302 303 SIHLQL; target = PhoP, residues 12 14 15 18 19 SQCLL (Escherichia coli, UniProt P23836); assay = Sort-seq, refers to: YFP reporter; system = E. coli; conditions = PhoQ-PhoP variant library, together with: 10 µM Mg2+; scale = relative to: high Mg2+ state, higher = stronger signaling; quantity = fold induction; value = 14.5

Excerpt of the above (set 3):
Strand = GGGAGUUCUACAGUCCGACGAUCUCAAAAGAAUACAUAGACUGGACACGAAGCUCAAAGGUAGAGUUCGCCUAGCAUGCAUACGAAGCCUGGAUCCCAUAUCCCAGCAGGGCAAACCAAUUGCCUCAGGCUAUUGGAAUUCUCGGGUGCCAA; value = 5.88
Strand = GGGAGUUCUACAGUCCGACGAUCGUUUCCUAAUAUUUCAAAGGUUCCAAAGGAUCUAGAGCUCUCUAGUUACAUAGCAUUCAUAUAGGAAUGAGCAGAGACAUCUGAGAAGAGUGGGAGCUCAUGGGUGACAGUGGAAUUCUCGGGUGCCAA; value = 0.61
